Published values pooled from the literature.
Every numbered part comes from another study and shows a few of its results, in no order. Changes are numbered by the printed parent chain.

Block 1
Target: Sal-like protein 4, full length isoform B (SALL4, Homo sapiens, UniProt Q9UJQ4-2, residues 1-616)
Technique: universal PBM
Molecule type: double-stranded DNA, one strand shown
Sample: in vitro
Concentration: not given
Setting: 8-mer, flanks averaged, mean of replicates
Direction: higher = stronger binding
Measurement: E-score
Construct (chain): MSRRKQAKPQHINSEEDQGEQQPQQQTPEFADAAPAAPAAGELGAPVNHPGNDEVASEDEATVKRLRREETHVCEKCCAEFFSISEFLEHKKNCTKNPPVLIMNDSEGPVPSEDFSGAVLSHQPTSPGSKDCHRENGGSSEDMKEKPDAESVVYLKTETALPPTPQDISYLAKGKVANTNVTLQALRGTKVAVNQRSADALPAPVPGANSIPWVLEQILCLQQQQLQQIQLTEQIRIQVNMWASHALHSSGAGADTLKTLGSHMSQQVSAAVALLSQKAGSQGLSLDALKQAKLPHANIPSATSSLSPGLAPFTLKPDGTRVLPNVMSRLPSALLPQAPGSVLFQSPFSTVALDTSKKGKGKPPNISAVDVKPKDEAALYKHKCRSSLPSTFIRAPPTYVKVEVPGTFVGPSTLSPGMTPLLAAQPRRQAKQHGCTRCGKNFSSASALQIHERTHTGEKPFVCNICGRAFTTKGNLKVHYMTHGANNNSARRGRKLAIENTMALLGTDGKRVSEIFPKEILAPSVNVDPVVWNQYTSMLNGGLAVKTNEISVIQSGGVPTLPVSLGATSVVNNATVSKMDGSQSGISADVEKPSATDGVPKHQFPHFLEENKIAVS
CGCAGAGC: -0.228
ATGCGTGA: 0.00035
AATATTCC: 0.369
CGGTTTTC: -0.156
ACATGGTG: 0.145
GGAAAATA: 0.336
AGCTATAT: 0.331
CTCGTGAA: 0.129
TGTGCACA: 0.17
GATGATGC: -0.0537
CATACGCA: 0.148
GGTACGTA: 0.0753
ATGCTGTG: 0.0477
GTAGTAAC: 0.0566
ACCACCCT: -0.272
CGGTCAAG: -0.183

Block 2
Target: Interferon regulatory factor 5, full length, phosphomimetic (IRF5, Homo sapiens, UniProt Q13568-2, residues 1-514, S451D/S453D/S456D/S462D)
Technique: protein-binding microarray
Molecule type: double-stranded DNA, one strand shown
Sample: in vitro
Concentration: 940 nM top
Setting: 60-bp whole probe
Together with: salmon DNA 0.4 mg/ml
Relative to: random background probes
Direction: higher = stronger binding
Measurement: fitted relative affinity
All sequences stand within: GCCTAGCAC … GTCTTGATTCGCTTGACGCTGCTG
TTAGATTTCAGTTCTGATTAGTGCTAG: 0.424 z-score
AATCATTTTCGTTTTTATTAGTGCTAG: 2.88 z-score
GTCATTCTCAACCCTGGTGCTGTGCTA: 1.21 z-score
TTAGATATCAGTTTCGGTTAGTGCTAG: 9.33 z-score
TAAAGCATTACTTTAGGTTCGTGCTAG: -0.741 z-score
TGTGGGTTTCGGTGTGGGAGGTGCTAG: 11 z-score
TTAGATTTCAGTATCGATGAGTGCTAG: 4.8 z-score
GACGGTTTCCTGTTCCTGACGTGCTAG: 1.34 z-score
TACGAACTGGGGTATCGAGACGTGCTA: 1.03 z-score
TTAGGTTTCGGTTTCCGTTAGTGCTAG: 13.2 z-score
TTAGGTATCGCGTTTCGGTTAGTGCTA: 3.62 z-score
TTAGGCCTGGACACTGGGTTAGTGCTA: -0.458 z-score
GACGGTCTCGGTTTAGGGACGTGCTAG: 5.24 z-score
TTAGGACTGGCACTGGGTTAGTGCTAG: -0.54 z-score
TCAACACTCGGTTTCCAACTGTGCTAG: 0.244 z-score
GACGATATAAGTCTCGAGACGTGCTAG: 0.524 z-score
TTAGGTTTCGGGGTTCGGTTAGTGCTA: 8.93 z-score
TTAGGTTCCGTTTTCGGTTAGTGCTAG: 2.72 z-score
TTAGGTTACGACTTTCGGTTAGTGCTA: 2.76 z-score
TTAGAACTTGGGTTTCGATTAGTGCTA: 5.61 z-score
GAAGGTATCGGTCTCGGGACGTGCTAG: 6.55 z-score
GACGGACGGGGGTTTCGGGACGTGCTA: 5.41 z-score
TTAGGATTCGACTTTCGGTTAGTGCTA: 3.57 z-score
TTAGGTATCGGGTTTCGGTTAGTGCTA: 8.38 z-score
TTAGGTAGCGACACTGGGTTAGTGCTA: -0.214 z-score

Block 3
Target: Histone acetyltransferase KAT6A, winged helix 1, GST fusion (KAT6A, Homo sapiens, UniProt Q92794, residues 1-85)
Technique: protein binding microarray
Molecule type: double-stranded DNA, one strand shown
Sample: in vitro
Concentration: not given
Setting: 8-mer, flanks averaged, mean of 2 arrays, mostly near background
Relative to: not given
Direction: higher = stronger binding
Measurement: E-score
Residues (chain): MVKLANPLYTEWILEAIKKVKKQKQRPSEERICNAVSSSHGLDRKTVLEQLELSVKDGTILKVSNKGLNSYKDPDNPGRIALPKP
AATGCCCA: -0.148
TCGACGAA: -0.107
CATCAGCC: -0.0811
ATTCGATC: -0.0246
AAAAGTTC: -0.161
ATACCTTC: -0.046
ACTGGAAT: -0.248
TTAACTAA: 0.00574
CAGAAACG: -0.0285
ACCGTTAA: 0.0575
CAGGTTCG: -0.136
AGTAGTAT: -0.112
CACCGTCC: 0.25
ACATGTAC: -0.0263
AAATGTCG: -0.0562
AGATGGAC: -0.108
CGTTGTAA: -0.08
AATTTTGT: -0.0589
CGTACACG: 0.141
ACGGGGAA: 0.166
AAACGAAC: -0.17

Block 4
Target: CCNE2, cyclin fold, Cln2 fusion (human)
Technique: yeast growth competition, sequencing
Sample: yeast
Setting: strong parent motif
Relative to: not given
Direction: higher = stronger binding
Measurement: normalised enrichment score
Starting sequence: RBL1 docking peptide (human); GSAKRRLFGEDPP
VSAKRRLFGEDPP [G1V]: 5.35
GSAKRRTFGEDPP [L7T]: -0.41
GSAKRRLFGEDKP [P12K]: 4.39
GSAKRRLFGEDWP [P12W]: 4.52
GGAKRRLFGEDPP [S2G]: 4.66
GSAKRRLFGEGPP [D11G]: 3.66
GSAKRQLFGEDPP [R6Q]: 2.39
GSAKRRLFGSDPP [E10S]: 4.19
GSAKRRLFGEDMP [P12M]: 4.06
GSLKRRLFGEDPP [A3L]: 1.12
GSAKARLFGEDPP [R5A]: -0.0173
GSAKRRLFDEDPP [G9D]: 4.66
SSAKRRLFGEDPP [G1S]: 4.4
GRAKRRLFGEDPP [S2R]: 4.1
GNAKRRLFGEDPP [S2N]: 4.35

Block 5
Target: Centromere-binding protein 1, full length, His-tagged (CBF1, Saccharomyces cerevisiae, UniProt P17106, residues 1-351)
Chain of UniProt P17106 (whole entry, looked up): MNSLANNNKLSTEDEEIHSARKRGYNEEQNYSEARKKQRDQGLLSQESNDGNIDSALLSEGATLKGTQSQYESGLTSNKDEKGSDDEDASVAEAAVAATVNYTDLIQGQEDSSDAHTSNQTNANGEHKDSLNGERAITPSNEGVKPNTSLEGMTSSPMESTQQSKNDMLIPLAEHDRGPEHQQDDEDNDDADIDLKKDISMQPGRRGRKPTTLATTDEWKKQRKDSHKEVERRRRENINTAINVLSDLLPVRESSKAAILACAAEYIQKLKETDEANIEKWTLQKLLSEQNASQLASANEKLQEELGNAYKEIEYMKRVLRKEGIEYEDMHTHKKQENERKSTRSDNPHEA
Technique: competition protein-binding microarray
Molecule type: double-stranded DNA, one strand shown
Sample: in vitro
Concentration: 2 µM
Setting: whole 60-bp probe, lowest competitor level
Together with: Pho4 competitor, 0.05 µM
Direction: higher = stronger binding
Measurement: fluorescence intensity
All sequences stand within: … GTCTTGATTCGCTTGACGCTGCTG
AGCTCCTGCACTTTGCACGTGGCCGAGCCATCGCCC: 841 a.u.
CTTCTGTAAATTTGCTCAGTGGGTGGACGCGCCCCG: 83.2 a.u.
TCCTCCCAGACGGGAAACGTGTCGGTCGCTTCTGTT: 68.8 a.u.
CGTCCTAGTGATTGCGTCGTGGGTGCCATGAGGAAG: 77.7 a.u.
AGGACCCTCTCTCAACATGTGGGTAATGCGAATCAA: 80.9 a.u.
CCGCTAAGCCCGAGAGCCGTGCGATCTATGTTTCTT: 60.9 a.u.
CCGATATGCAGACATCATGTTCCTGTATTTTTTGAC: 85.3 a.u.
TTATTCCCGTATCCACACGTGGCCGAAGAATATATA: 863 a.u.
GTCTTGTCTCATTGGGCCGTGGGTGTCCCCACTTCA: 71 a.u.
AGCAATTCGGCCAACAACGTGCTTTCCTTCATCTCT: 157 a.u.
CCGATTGGTTACAGTTCCGTGATGGGCAAGATTACT: 66.2 a.u.
GTATTTCCGGTATCGCACGTGGTGATGGATTTGATC: 1060 a.u.
CTTCTGTAAATTTGGATAGTGGGTGGACGCGCCCCG: 85.1 a.u.
TGAAGAGTGTTGTCTCATGTGACAGTGAATGCCATT: 541 a.u.
TTTGTGGCTTAGCATCTCGTGAGGATATGGAAGACT: 116 a.u.
CGGGGTTAAGTTTGACTCGTGGGTGGCTTGCAGCAG: 83.6 a.u.

Block 6
Target: UBE2N UBC core domain (UniProt P61088)
Chain of UniProt P61088 (whole entry, looked up): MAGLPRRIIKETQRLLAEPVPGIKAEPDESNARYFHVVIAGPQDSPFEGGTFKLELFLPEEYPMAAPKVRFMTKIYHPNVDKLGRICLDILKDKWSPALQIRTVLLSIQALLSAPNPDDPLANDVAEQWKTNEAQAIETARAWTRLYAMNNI
Technique: yeast two-hybrid
Sample: yeast
Setting: mostly zero background
Relative to: not given
Direction: higher = stronger interaction
Measurement: lacZ reporter activity
B1: RFWD3 RING domain (UniProt Q6PCD5); chain ASMDEEEGDTCTICLEQWTNAGDHRLSALRCGHLFGYRCISTWLKGQVRKCPQCNKKARHSDIVV
B2: RNF19A RING domain (UniProt Q9NV58); chain ISKQIGDFIECPLCLLRHSKDRFPDIMTCHHRSCVDCLRQYLRIEISESRVNISCPECTERFNPHDIR
B3: ZMIZ2 RING domain (UniProt Q8NF64); chain GTIPGTPGPNGEDGVEQTAIKVSLKCPITFRRIQLPARGHDCRHIQCFDLESYLQLNCERGTWRCPVCNKTALLEGLEVDQYMLGILIYIQNSDYEEITIDPTCSWK
B4: SH3RF1 RING domain (UniProt Q7Z6J0); chain DESALLDLLECPVCLERLDASAKVLPCQHTFCKRCLLGIVGSRNELRCPECRTLVGSGVEEL
B5: DTX2 RING domain (UniProt Q86UW9); chain EELKVPPDEDCIICMEKLSTASGYSDVTDSKAIGSLAVGHLTKCSHAFHLLCLLAMYCNGNKDGSLQCPSCKTIYGEKTGTQ
B6: SYTL4 RING domain (UniProt Q96C24); chain RGSQHYSDRTCARCQESLGRLSPKTNTCRGCNHLVCRDCRIQESNGTWRCKVCAKEIELKKAT
B7: DZIP3 RING domain (UniProt Q86Y13); chain PDEEEEEEEPCVICHENLSPENLSVLPCAHKFHAQCIRPWLMQQGTCPTCRLHVLLPEEFP
B1 (RFWD3 RING domain): 5220
GSRLQEINDVCAICYHEFTTSARITPCNHYFHALCLRKWLYIQDTCPMCHQKVYIEDDIK (RNF139 RING domain (UniProt Q8WU17)): 0
B2 (RNF19A RING domain): 0
B3 (ZMIZ2 RING domain): 0
B4 (SH3RF1 RING domain): 0
YQNEVDDDLVCHICLQPLLQPLDTPCGHTFCYKCLRNFLQEKDFCPLDRKRLHFKLCKK (LNX2 RING domain (UniProt Q8N448)): 0
AMYLQENGIDCPKCKFSYALARGGCMHFHCTQCRHQFCSGCYNAFYAKNKC (RNF31 RING domain (UniProt Q96EP0)): 0
NLSELTPYILCSICKGYLIDATTITECLHTFCKSCIVRHFYYSNRCPKCNIVVHQTQPLY (PCGF6 RING domain (UniProt Q9BYE7)): 0
B5 (DTX2 RING domain): 0
B6 (SYTL4 RING domain): 0
B7 (DZIP3 RING domain): 0

Repeated from above (block 2):
TTAGGTATCGCGTTTCGGTTAGTGCTA: 3.62 z-score
TTAGGCCTGGACACTGGGTTAGTGCTA: -0.458 z-score
GACGGTCTCGGTTTAGGGACGTGCTAG: 5.24 z-score
TTAGGACTGGCACTGGGTTAGTGCTAG: -0.54 z-score
TCAACACTCGGTTTCCAACTGTGCTAG: 0.244 z-score
GACGATATAAGTCTCGAGACGTGCTAG: 0.524 z-score
TTAGGTTTCGGGGTTCGGTTAGTGCTA: 8.93 z-score
TTAGGTTCCGTTTTCGGTTAGTGCTAG: 2.72 z-score
TTAGGTTACGACTTTCGGTTAGTGCTA: 2.76 z-score
TTAGAACTTGGGTTTCGATTAGTGCTA: 5.61 z-score
GAAGGTATCGGTCTCGGGACGTGCTAG: 6.55 z-score
GACGGACGGGGGTTTCGGGACGTGCTA: 5.41 z-score
